Measurements from different studies.
Each numbered part is a random draw from the data of one study; scales do not carry over between parts. Changes are numbered by the printed parent chain.

Set 1
Target: Histone acetyltransferase KAT6A, both winged helices, GST fusion (KAT6A, Homo sapiens, UniProt Q92794, residues 1-181)
Method: protein binding microarray
Form: double-stranded DNA, one strand shown
Medium: in vitro
Concentration: not given
Setting: 8-mer, flanks averaged, mean of 2 arrays, mostly near background
Reference: not given
Reading: higher = stronger binding
Construct (chain): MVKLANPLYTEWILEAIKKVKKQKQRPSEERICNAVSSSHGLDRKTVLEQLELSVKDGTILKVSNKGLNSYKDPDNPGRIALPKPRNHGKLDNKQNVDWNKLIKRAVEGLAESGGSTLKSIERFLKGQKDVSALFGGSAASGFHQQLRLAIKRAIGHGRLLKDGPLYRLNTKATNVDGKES
Strand	E-score
GAATCCCA	-0.289
AATAGCGC	0.231
AAAAGAAA	-0.048
CATGTCCG	0.162
GTTTCTCA	-0.206
GAGCGCGA	0.254
ACGTGGAC	0.0347
GCGGGAGC	0.249
CCAAGGCC	0.00443
CGGATCAA	0.131
AGCGATTA	0.00683
AACAATGT	-0.093
GTCCGAAC	0.121

Set 2
Target: CCND1, cyclin fold, Cln2 fusion (human)
Method: yeast growth competition, sequencing
Medium: yeast
Setting: weak parent motif
Reference: not given
Reading: higher = stronger binding
Parent: GMNC docking peptide (human); KNAKRNLSSEFAN; partner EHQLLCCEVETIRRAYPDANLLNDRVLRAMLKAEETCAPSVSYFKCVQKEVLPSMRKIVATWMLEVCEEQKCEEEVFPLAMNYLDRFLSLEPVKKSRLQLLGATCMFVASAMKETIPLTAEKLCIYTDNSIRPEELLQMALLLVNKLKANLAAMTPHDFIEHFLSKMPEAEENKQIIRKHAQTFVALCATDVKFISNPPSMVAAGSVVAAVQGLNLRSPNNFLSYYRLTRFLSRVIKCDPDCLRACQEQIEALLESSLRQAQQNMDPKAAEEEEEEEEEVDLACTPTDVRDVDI
Substitution	normalised enrichment score
KNAKRNLSSRFAN [E10R]	0.511
KCAKRNLSSEFAN [N2C]	0.511
KNAKRNVSSEFAN [L7V]	0.281
KNAKRNLSSEFLN [A12L]	0.332
KNAKRNLSSEVAN [F11V]	0.0605
KNAKRALSSEFAN [N6A]	0.132
KNAKSNLSSEFAN [R5S]	0.0317
KNRKRNLSSEFAN [A3R]	0.0782
KNAKRNLSVEFAN [S9V]	0.462
KNAKRNYSSEFAN [L7Y]	-0.0642
KRAKRNLSSEFAN [N2R]	0.748
KNAKRNLSIEFAN [S9I]	0.681
KNAKNNLSSEFAN [R5N]	0.145
KNAKRNLSSERAN [F11R]	-0.048
KNLKRNLSSEFAN [A3L]	0.285
KNDKRNLSSEFAN [A3D]	0.179

Set 3
Target: Fragile X messenger ribonucleoprotein 1, C-terminal low-complexity region (Fmr1, Mus musculus, UniProt P35922)
Method: RNA Bind-n-Seq
Form: RNA
Medium: in vitro
Concentration: 200 nM
Setting: whole 134-nt RNA, ends assumed
Together with: 150 mM LiCl
Reference: input library
Reading: higher = stronger binding
Library: 7-deaza-guanosine replaces G
Shared flanks, not repeated: GGGAGUUCUACAGUCCGACGAUC … UGGAAUUCUCGGGUGUCAAGG
Strand	log2 enrichment
AGUCCUGUGCUACACAUCGUAUGUACCGAAUCGGGUUUUUUUGGGAAAGGGUUUGGGAAAGUAUUAUGUUACGCCGUUCGGAUCUGCACU	-2.88
UGGGAGGUGGAUUUUGUUUAUUUUUUUAGCUCAUUUCCAGGGGUGGGAAUUUUUUUUUAAUAAGUGUCAUGAAUAAAGUUGUUUUUGAAA	-0.108
AAGUCCUGUGCUACACAUCGUAUGUACCGAAUCGGAAAAGGGAAAAGGGGAAAAGGGAAAGUAUUAUGUUACGCCGUUCGGAUCUGCACU	0.196
CAAGUCCUGUGCUACACAUCGUAUGUACCGAAUCGGGCCCGGGCCCGGGCCCGGGAAAGUAUUAUGUUACGCCGUUCGGAUCUGCACUUC	-2.52
CCUGUGCUACACAUCGUAUGUACCGAAUCGGCCCCCCCGGGCCCCCCCGGGCCCCCCCGGAAAGUAUUAUGUUACGCCGUUCGGAUCUGC	1.05
CCUGUGCUACACAUCGUAUGUACCGAAUCGGGGCCCCCCCGGCCCCCCCGGCCCCCCCGGAAAGUAUUAUGUUACGCCGUUCGGAUCUGC	1.07
CACAGACAACACGCACCCACACAGACACAGAGGGAAGGGGAAAGGAUGGGGACAGGGUGCACAGCAGGGCGGGGUAGGACCCCAGCCCCU	-0.67
UAAUUGAAGAACCCAUUUUGCUCAUUUUAGGCAUCGUUAAAGAAUCUGGAGUGAAGCACAAGGGAUUGAUUGAAAUACCCAAUCUUUCUG	-1.3

Other studies, line by line
Substance	target	assay	test system	setting	scale	quantity	value
PhoQ, residues 284 288 289 292 302 303 SLANKL	PhoP, residues 12 14 15 18 19 YHFSH (Escherichia coli, UniProt P23836)	Sort-seq, refers to: YFP reporter	E. coli	PhoQ-PhoP variant library, together with: 10 µM Mg2+	reference: high Mg2+ state, higher = stronger signaling	fold induction	2.36
